{"data": "Measured values from different studies", "note": "Each numbered part is a random draw from the data of one study; scales do not carry over between parts. Changes are numbered by the printed parent chain."}
{"data": "Set 1", "target": "JUNB, bZIP domain (human)", "technique": "DHFR protein complementation", "sample": "yeast", "setting": "single substitutions, most at no-binding floor", "relative to": "wild-type JUN-FOS pair", "reading": "higher = stronger binding", "starting sequence": "JUN, bZIP domain (human); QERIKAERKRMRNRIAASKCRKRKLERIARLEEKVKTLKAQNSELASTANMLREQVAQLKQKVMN; partner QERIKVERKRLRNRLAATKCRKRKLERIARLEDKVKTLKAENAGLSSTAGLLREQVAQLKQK"}
{"Substitution": "R53P", "binding fitness": "-1.56 natural log"}
{"Substitution": "S43A", "binding fitness": "-0.804 natural log"}
{"Substitution": "I28Y", "binding fitness": "-1.45 natural log"}
{"Substitution": "E33H", "binding fitness": "-1.24 natural log"}
{"data": "Set 2", "target": "Prothrombin, mature alpha-thrombin (F2, Homo sapiens, UniProt P00734)", "technique": "aptamer microarray, sandwich", "molecule type": "DNA with 2'F-ANA", "sample": "in vitro", "concentration": "200 nM", "setting": "whole 15-mer aptamer, many near background", "with": "Cy3 exosite-II aptamer, 400 nM", "reading": "higher = stronger binding", "strand": "GGTTGGTGTGGTTGG"}
{"Modification": "2'F-ANA at 2 6 8 9 12", "mean fluorescence intensity [a.u.]": 613}
{"Modification": "2'F-ANA at 3 6 7 8 11", "mean fluorescence intensity [a.u.]": 1060}
{"Modification": "2'F-ANA at 2 4 8 9 10 13 15", "mean fluorescence intensity [a.u.]": 70.5}
{"Modification": "2'F-ANA at 2 4 6 7 9 11 12 13 15", "mean fluorescence intensity [a.u.]": 223}
{"Modification": "2'F-ANA at 1 3 4 5 7 8 9 10 11 12 14 15", "mean fluorescence intensity [a.u.]": 48}
{"Modification": "2'F-ANA at 3 6 7 11 15", "mean fluorescence intensity [a.u.]": 839}
{"Modification": "2'F-ANA at 1 3 6 8 11 12", "mean fluorescence intensity [a.u.]": 531}
{"data": "Set 3", "target": "CCNF, cyclin fold, Cln2 fusion (human)", "technique": "yeast growth competition, sequencing", "sample": "yeast", "setting": "strong parent motif", "relative to": "not given", "reading": "higher = stronger binding", "starting sequence": "RB1 docking peptide (human); PKPLKKLRFDIEG"}
{"Substitution": "K2I", "normalised enrichment score": 2.25}
{"Substitution": "R8D", "normalised enrichment score": 1.51}
{"Substitution": "I11Q", "normalised enrichment score": 0.374}
{"data": "Further values, each from its own experiment"}
{"Molecule": "PhoQ, residues 284 288 289 292 302 303 SSLVEF", "target": "PhoP, residues 12 14 15 18 19 LYHSL (Escherichia coli, UniProt P23836)", "test": "Sort-seq, item: YFP reporter", "test system": "E. coli", "setting": "PhoQ-PhoP variant library, with: 10 µM Mg2+", "how to read": "relative to: high Mg2+ state, higher = stronger signaling", "quantity": "fold induction", "result": 3.83}
{"note": "For quick reference, copied from above (set 2):"}
{"Modification": "2'F-ANA at 3 6 7 11 15", "mean fluorescence intensity [a.u.]": 839}
